Published values pooled from the literature.
Numbered parts are unrelated; each lists some results of a single study.
UniProt P31749, sequence (whole entry, looked up): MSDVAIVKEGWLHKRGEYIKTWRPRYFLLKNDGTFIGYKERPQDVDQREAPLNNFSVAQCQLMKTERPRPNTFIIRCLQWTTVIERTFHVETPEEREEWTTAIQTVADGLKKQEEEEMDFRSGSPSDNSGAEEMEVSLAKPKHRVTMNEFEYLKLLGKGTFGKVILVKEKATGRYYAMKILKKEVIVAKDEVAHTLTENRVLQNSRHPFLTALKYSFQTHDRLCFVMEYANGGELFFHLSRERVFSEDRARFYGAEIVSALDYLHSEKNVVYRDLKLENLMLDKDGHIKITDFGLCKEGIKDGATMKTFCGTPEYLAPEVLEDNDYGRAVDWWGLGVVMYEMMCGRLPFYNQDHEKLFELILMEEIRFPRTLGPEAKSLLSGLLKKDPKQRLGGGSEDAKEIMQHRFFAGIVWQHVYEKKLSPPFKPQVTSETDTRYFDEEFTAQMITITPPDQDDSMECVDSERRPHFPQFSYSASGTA

Block 1
Cell line: HaCaT
Tested at: 100 µM
Time: 36 h
| Structure (SMILES) | viability [%] |
| --- | --- |
| CN(C)CCc1c[nH]c2ccc(Cn3cncn3)cc12 | 94.6 |
| CC1=C(/C=C/C(C)=C/C=C/C(C)=C/C=C/C=C(C)/C=C/C=C(C)/C=C/C2=C(C)CCCC2(C)C)C(C)(C)CCC1 | 8.58 |
| CN(Cc1ccc(C(C)(C)C)cc1)Cc1cccc2ccccc12 | 30.4 |
| Clc1cccc(Cl)c1N=C1NCCN1 | 78.1 |

Block 2
SMILES: CC(=O)N[C@@H](Cc1c[nH]c2ccccc12)C(=O)N[C@@H](CCC(=O)C=[N+]=[N-])C(=O)OC(C)C
Medium: EL4 tumour
Dose: dose not given
Relative to: vehicle
| assay | test system | log2 fold change |
| --- | --- | --- |
| measured: alpha-ketoglutarate | mouse, EL4 tumour-bearing | -0.14 |
| metabolomics, measured: 2,3-dihydroxyisovalerate | mouse | -0.594 |
| measured: N6-acetyllysine | mouse, EL4 tumour-bearing | 0.13 |
| measured: cytosine | mouse, EL4 tumour-bearing | -0.0968 |
| measured: ribose | mouse, EL4 tumour-bearing | 1.69 |

Mixed results
| Structure (SMILES) | target | assay | measurement | result |
| --- | --- | --- | --- | --- |
| c1ccc(C2CCN(c3cnc4c(N5CCOCC5)nccn34)CC2)cc1 | GABAA receptor | binding | Ki | 1820 nM |
| CCN(CC)CCCCN1c2ccccc2Oc2ccc(Cl)cc21 | AKT1 (Homo sapiens, UniProt P31749) | enzyme activity, inhibitor, radiometric | IC50 | > 30 µM |

Repeated from above (block 2):
| assay | test system | log2 fold change |
| --- | --- | --- |
| measured: cytosine | mouse, EL4 tumour-bearing | -0.0968 |
| metabolomics, measured: 2,3-dihydroxyisovalerate | mouse | -0.594 |
